Published values of several laboratories.
Compare with care: the assays were run in different laboratories.

`CNC(=O)c1ccc(-c2cnc3ncc(Cc4ccc5ncccc5c4)n3n2)cc1F` — result for “adverse event incidence”: 0% (phase 1 clinical trial, refers to: blood alkaline phosphatase increased; gastric cancer expansion cohort; oral, 600 mg twice daily, grade 3 or 4).
`NCCONC(=O)[C@@H]1CC[C@@H]2CN1C(=O)N2OS(=O)(=O)O` — result for “adverse event incidence”: 0% (refers to: infusion-related reaction; healthy Chinese men; intravenous, 1 g, treatment-emergent).
For `Cc1cc(Nc2ccc(S(F)(F)(F)(F)F)cc2)n2nc(C(C)(F)F)nc2n1`, “adverse event Stomatitis” read 0% (Plasmodium vivax malaria patients; oral, 800 mg).
`CC[C@H](C)CCCCC(=O)N[C@@H](CCN)C(=O)N[C@H](C(=O)N[C@@H](CCN)C(=O)N[C@H]1CCNC(=O)[C@H]([C@@H](C)O)NC(=O)[C@H](CCN)NC(=O)[C@H](CCN)NC(=O)[C@H](CC(C)C)NC(=O)[C@@H](Cc2ccccc2)NC(=O)[C@H](CCN)NC1=O)[C@@H](C)O` — result for “adverse event incidence”: 50% (refers to: oral hypoaesthesia; normal renal function subjects; IV, 0.75 mg/kg).
`CC[C@H](C)[C@H](NC(=O)[C@H](Cc1ccccc1)NC(=O)[C@H](CCC(=O)O)NC(=O)[C@H](CCCCNC(=O)COCCOCCNC(=O)COCCOCCNC(=O)CC[C@H](NC(=O)CCCCCCCCCCCCCCCCC(=O)O)C(=O)O)NC(=O)[C@H](C)NC(=O)[C@H](C)NC(=O)[C@H](CCC(N)=O)NC(=O)CNC(=O)[C@H](CCC(=O)O)NC(=O)[C@H](CC(C)C)NC(=O)[C@H](Cc1ccc(O)cc1)NC(=O)[C@H](CO)NC(=O)[C@H](CO)NC(=O)[C@@H](NC(=O)[C@H](CC(=O)O)NC(=O)[C@H](CO)NC(=O)[C@@H](NC(=O)[C@H](Cc1ccccc1)NC(=O)[C@@H](NC(=O)CNC(=O)[C@H](CCC(=O)O)NC(=O)C(C)(C)NC(=O)[C@@H](N)Cc1cnc[nH]1)[C@@H](C)O)[C@@H](C)O)C(C)C)C(=O)N[C@@H](C)C(=O)N[C@@H](Cc1c[nH]c2ccccc12)C(=O)N[C@@H](CC(C)C)C(=O)N[C@H](C(=O)N[C@@H](CCCNC(=N)N)C(=O)NCC(=O)N[C@@H](CCCNC(=N)N)C(=O)NCC(=O)O)C(C)C`: “adverse event incidence” 93.3% (refers to: Mild adverse events; type 2 diabetes patients; dose not given; reference: subjects).
`Cc1c(Cl)c(C)[n+]([O-])c(Cl)c1-c1noc(-c2cc(O)c(O)c([N+](=O)[O-])c2)n1`: “adverse event incidence” 13.3% (refers to: Mild severity; healthy Chinese subjects; oral, 25 mg).
Under “adverse events, all grades”, `CC(=O)O[C@H]1C(=O)[C@@]2(C)[C@H]([C@H](OC(=O)c3ccccc3)[C@]3(O)C[C@H](OC(=O)[C@H](O)[C@@H](NC(=O)c4ccccc4)c4ccccc4)C(C)=C1C3(C)C)[C@]1(OC(C)=O)CO[C@@H]1C[C@@H]2O` is recorded as 11% (refers to: peripheral oedema; patients with advanced solid tumours; intravenous, dose not given, phase Ib, related to compound).
For `Cc1c(C(=O)O)ccc2c3n(nc12)[C@@H]1[C@H](C3)N(CC2CC2)[C@@]2(C(=O)Nc3cc(Cl)ccc32)[C@H]1c1cccc(Cl)c1F`, “adverse event incidence” read 0% (phase Ia trial, refers to: Dizziness; cancer patients; oral, dose not given, all patients grade ≥3).
For `FC(F)(F)c1ccc(CNc2ccc(Cc3c[nH]c4ncc(Cl)cc34)cn2)cn1`, “adverse event incidence” read 2% (refers to: alanine aminotransferase increased; patients with advanced solid tumours; oral, dose not given, grade 3 and 4, possibly related to drug).
`O=C1CCc2ccc(OCCCCN3CCN(c4cccc(Cl)c4Cl)CC3)cc2N1` — result for “adverse event incidence”: 20% (refers to: Sedation; genotyped patients, CYP2D6 ultrarapid metabolizers; dose not given, long-acting oral or depot).

Excerpt of the above:
`NCCONC(=O)[C@@H]1CC[C@@H]2CN1C(=O)N2OS(=O)(=O)O` — result for “adverse event incidence”: 0% (refers to: infusion-related reaction; healthy Chinese men; intravenous, 1 g, treatment-emergent).
